Experimental data from different studies.
Parts stem from different laboratories: compare values within a part only.
UniProt Q16539, sequence (whole entry, looked up): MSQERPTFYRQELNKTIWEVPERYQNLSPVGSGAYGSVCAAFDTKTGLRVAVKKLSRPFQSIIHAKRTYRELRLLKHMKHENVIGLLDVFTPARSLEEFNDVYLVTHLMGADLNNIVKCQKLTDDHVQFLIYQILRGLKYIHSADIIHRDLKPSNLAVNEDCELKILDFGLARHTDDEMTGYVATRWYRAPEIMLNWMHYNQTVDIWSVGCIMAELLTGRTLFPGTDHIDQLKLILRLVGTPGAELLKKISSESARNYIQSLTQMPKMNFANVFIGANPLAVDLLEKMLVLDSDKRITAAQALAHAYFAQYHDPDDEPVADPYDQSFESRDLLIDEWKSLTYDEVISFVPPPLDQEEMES
UniProt Q8NE63, sequence (whole entry, looked up): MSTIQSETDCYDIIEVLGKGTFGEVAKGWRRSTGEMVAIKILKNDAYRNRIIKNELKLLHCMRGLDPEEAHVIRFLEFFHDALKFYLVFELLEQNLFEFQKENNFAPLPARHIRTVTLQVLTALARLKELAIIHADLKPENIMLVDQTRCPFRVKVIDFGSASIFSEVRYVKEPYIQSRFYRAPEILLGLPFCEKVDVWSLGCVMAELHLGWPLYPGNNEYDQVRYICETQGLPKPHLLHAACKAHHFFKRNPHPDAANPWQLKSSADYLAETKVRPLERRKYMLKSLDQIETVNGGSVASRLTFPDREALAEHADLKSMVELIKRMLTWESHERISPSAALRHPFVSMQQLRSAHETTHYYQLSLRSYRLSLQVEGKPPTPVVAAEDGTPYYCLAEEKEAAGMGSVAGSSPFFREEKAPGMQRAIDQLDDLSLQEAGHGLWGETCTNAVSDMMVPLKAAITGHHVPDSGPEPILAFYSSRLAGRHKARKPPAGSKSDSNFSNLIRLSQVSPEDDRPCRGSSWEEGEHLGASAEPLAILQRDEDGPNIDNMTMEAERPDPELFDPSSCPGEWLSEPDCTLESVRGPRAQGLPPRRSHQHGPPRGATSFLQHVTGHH
UniProt P32298, sequence (whole entry, looked up): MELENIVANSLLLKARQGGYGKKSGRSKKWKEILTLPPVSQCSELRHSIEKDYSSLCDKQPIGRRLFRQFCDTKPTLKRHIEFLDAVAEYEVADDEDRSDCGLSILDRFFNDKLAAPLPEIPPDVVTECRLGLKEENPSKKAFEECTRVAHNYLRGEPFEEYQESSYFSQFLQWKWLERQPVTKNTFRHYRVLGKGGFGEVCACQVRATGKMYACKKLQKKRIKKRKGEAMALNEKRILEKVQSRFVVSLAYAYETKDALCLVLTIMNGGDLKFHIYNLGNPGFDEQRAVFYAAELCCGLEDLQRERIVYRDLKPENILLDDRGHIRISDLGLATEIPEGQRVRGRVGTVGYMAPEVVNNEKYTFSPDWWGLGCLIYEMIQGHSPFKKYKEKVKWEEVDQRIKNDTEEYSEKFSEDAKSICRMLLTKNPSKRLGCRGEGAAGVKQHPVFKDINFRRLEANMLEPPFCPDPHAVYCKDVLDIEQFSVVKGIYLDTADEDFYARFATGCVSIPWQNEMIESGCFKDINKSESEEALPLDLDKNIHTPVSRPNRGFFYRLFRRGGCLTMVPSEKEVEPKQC
UniProt Q9H4B4, sequence (whole entry, looked up): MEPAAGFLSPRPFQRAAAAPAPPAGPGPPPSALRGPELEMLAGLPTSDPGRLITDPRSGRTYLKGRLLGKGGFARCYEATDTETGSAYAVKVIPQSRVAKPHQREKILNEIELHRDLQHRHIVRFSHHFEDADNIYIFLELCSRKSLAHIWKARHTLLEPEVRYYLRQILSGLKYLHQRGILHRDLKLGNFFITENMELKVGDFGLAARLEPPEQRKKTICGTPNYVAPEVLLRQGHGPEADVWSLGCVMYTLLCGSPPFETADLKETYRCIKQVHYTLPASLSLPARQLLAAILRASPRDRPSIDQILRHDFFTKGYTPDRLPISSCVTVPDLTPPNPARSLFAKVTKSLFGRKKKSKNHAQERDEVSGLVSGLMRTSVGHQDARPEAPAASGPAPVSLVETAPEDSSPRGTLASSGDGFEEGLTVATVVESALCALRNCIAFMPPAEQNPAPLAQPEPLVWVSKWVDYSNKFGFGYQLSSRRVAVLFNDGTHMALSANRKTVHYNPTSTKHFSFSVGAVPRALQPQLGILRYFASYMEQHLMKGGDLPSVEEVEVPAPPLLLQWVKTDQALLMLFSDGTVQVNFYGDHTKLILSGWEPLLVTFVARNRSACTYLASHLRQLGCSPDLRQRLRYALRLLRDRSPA
UniProt O14920, sequence (whole entry, looked up): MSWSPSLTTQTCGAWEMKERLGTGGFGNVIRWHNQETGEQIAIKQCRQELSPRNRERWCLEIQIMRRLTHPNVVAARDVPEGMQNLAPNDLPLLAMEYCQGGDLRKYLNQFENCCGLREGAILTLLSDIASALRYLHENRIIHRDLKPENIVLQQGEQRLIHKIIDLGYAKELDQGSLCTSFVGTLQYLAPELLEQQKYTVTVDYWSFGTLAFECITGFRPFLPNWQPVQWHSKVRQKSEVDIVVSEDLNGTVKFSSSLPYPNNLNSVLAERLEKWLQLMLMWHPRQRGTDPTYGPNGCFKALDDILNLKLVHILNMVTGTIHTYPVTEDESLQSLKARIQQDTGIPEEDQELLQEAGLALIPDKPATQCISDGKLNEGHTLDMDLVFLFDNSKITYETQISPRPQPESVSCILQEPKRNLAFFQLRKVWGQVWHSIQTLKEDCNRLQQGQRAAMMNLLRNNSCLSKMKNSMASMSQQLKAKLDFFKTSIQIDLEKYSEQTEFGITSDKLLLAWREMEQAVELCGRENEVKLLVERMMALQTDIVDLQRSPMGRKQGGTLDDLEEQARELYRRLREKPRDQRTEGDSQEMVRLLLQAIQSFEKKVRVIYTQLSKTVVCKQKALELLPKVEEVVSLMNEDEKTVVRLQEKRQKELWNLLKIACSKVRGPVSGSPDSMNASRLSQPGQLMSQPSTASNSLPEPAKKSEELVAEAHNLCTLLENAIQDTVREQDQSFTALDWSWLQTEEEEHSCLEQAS
UniProt P06493, sequence (whole entry, looked up): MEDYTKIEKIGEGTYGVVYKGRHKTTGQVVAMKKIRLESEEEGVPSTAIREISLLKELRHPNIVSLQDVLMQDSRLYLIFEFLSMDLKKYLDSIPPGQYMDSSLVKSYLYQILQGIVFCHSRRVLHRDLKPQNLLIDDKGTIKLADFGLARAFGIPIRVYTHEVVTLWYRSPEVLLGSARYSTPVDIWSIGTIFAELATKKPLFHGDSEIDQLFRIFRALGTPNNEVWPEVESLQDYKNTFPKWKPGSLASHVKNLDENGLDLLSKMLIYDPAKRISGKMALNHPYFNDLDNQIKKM
UniProt Q13237, sequence (whole entry, looked up): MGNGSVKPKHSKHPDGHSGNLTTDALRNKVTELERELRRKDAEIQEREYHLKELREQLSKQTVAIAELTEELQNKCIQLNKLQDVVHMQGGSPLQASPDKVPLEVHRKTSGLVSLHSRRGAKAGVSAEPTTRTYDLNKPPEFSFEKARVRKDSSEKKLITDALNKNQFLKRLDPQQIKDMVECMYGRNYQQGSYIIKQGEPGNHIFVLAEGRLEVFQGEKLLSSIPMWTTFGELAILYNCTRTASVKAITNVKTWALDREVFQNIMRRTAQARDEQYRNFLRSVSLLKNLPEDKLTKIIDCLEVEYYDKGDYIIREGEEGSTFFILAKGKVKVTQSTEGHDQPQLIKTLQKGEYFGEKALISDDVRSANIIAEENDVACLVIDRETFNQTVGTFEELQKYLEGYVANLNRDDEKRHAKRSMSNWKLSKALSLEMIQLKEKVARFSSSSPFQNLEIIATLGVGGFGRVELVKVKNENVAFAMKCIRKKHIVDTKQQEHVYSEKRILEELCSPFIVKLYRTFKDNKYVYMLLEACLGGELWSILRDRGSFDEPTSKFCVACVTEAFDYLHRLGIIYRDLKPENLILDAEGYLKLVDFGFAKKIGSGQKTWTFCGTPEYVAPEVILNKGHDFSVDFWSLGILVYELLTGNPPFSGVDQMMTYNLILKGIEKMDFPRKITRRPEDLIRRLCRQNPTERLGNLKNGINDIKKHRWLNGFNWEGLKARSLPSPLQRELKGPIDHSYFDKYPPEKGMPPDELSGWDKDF
UniProt P49761, sequence (whole entry, looked up): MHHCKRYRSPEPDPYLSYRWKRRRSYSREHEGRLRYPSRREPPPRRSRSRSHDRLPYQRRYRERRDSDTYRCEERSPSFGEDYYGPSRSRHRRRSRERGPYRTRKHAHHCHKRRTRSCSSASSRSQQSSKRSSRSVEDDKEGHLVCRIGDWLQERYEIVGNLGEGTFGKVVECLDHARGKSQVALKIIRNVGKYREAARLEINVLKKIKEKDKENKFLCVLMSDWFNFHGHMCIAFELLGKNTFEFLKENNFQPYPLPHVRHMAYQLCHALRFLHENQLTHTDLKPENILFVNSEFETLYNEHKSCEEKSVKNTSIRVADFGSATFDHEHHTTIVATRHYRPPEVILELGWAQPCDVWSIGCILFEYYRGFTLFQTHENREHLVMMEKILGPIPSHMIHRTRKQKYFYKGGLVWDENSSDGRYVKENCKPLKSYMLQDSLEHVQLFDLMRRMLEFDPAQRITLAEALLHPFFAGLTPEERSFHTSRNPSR

Study 1
Target: Bromodomain-containing protein 4, BD1 (BRD4, Homo sapiens, UniProt O60885)
Observed: acetyl-histone H4 peptide binding
Technique: AlphaScreen displacement
Tested at: 50 µM
| SMILES | inhibition [%] |
| --- | --- |
| NC(=O)Nc1sc(-c2ccccc2)cc1C(N)=O | 23.9 |
| Oc1cccc(-c2nc(N3CCOCC3)c3sccc3n2)c1 | 60.5 |
| Cc1ccc(NC(=O)c2snc3c(=O)[nH]cnc23)cc1 | 32.2 |
| CCN(CC)Cc1c(-c2ccc(OC)cc2)[nH]c2ncccc12 | 10.8 |
| O=[N+]([O-])c1ccc(-c2nc(-c3ccc(F)cc3)c(-c3ccncc3)[nH]2)cc1 | 59.6 |
| O=C1NC(=O)C(=Cc2ccccc2OCc2ccccc2Cl)S1 | 12.9 |
| CCC(Sc1ccc2nnc(-c3ccc(OC)c(OC)c3)n2n1)C(=O)OC (centres unmarked) | 6.4 |
| C=CCc1cccc(C=NCCS(=O)(=O)O)c1O | 15 |
| COc1cc(O)c2c(c1)/C=C/C[C@H](O)[C@H](O)C(=O)/C=C\C[C@H](C)OC2=O | 12.3 |

Study 2
Compound: c1ccc2c(-c3ccncc3)c[nH]c2c1
Observed: enzyme activity
Action: inhibitor
Tested at: 0.5 µM
Baseline: control
| target | remaining activity [%] |
| --- | --- |
| NEK3 (Homo sapiens, UniProt P51956) | 91.6 |
| PRKG2 (Homo sapiens, UniProt Q13237) | 38.3 |
| ROCK1 (Homo sapiens, UniProt Q13464) | 84.2 |
| CLK3 (Homo sapiens, UniProt P49761) | 92.6 |
| CAMK4 (Homo sapiens, UniProt Q16566) | 101 |
| MARK2 (Homo sapiens, UniProt Q7KZI7) | 102 |
| PLK3 (Homo sapiens, UniProt Q9H4B4) | 95.3 |
| PAK3 (Homo sapiens, UniProt O75914) | 102 |
| KDR (Homo sapiens, UniProt P35968) | 94.2 |
| Cyclin-dependent kinase 9, with cyclin K (CDK9, Homo sapiens, UniProt P50750) | 91.2 |
| GRK4 (Homo sapiens, UniProt P32298) | 94.9 |
| RPS6KA4 (Homo sapiens, UniProt O75676) | 91 |
| MAPK14 (Homo sapiens, UniProt Q16539) | 104 |
| Cyclin-dependent kinase 1, with cyclin A (CDK1, Homo sapiens, UniProt P06493) | 90.6 |
| PNCK (Homo sapiens, UniProt Q6P2M8) | 98.5 |

Study 3
SMILES: CC(=O)Nc1c(C(C)=O)c(=O)n(C)c2nc(-c3ccc(Cl)cc3Cl)c(-c3ccc(Cl)cc3)cc12
Observed: cell-free assay
Technique: competition with immobilised ligand
Tested at: 1 µM
| target | remaining binding [%] |
| --- | --- |
| ULK2 (Homo sapiens, UniProt Q8IYT8) | 100 |
| IKBKB (Homo sapiens, UniProt O14920) | 100 |
| BRSK2 (Homo sapiens, UniProt Q8IWQ3) | 100 |
| HIPK4 (Homo sapiens, UniProt Q8NE63) | 89 |
| RIOK1 (Homo sapiens, UniProt Q9BRS2) | 100 |
| KIT (Homo sapiens, UniProt P10721, V559D) | 100 |
| MAPK1 (Homo sapiens, UniProt P28482) | 100 |
| PRKCI (Homo sapiens, UniProt P41743) | 100 |
| STK17A (Homo sapiens, UniProt Q9UEE5) | 100 |
| Tyrosine-protein kinase ABL1, phosphorylated (ABL1, Homo sapiens, UniProt P00519, H396P) | 100 |

Study 4
Target: Beta-1 adrenergic receptor (ADRB1, Homo sapiens, UniProt P08588)
UniProt P08588, sequence (whole entry, looked up): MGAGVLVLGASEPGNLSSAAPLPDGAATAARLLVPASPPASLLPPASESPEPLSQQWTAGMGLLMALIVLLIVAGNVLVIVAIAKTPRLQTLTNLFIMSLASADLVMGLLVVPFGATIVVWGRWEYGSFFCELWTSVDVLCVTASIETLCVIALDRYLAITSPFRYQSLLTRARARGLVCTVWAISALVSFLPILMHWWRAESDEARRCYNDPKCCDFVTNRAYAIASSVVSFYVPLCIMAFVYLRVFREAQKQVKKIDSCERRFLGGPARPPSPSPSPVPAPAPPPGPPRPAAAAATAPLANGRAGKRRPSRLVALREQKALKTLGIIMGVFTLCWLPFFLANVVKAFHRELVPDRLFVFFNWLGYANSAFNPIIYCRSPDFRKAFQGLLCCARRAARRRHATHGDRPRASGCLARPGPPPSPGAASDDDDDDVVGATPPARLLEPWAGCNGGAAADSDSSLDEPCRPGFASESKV
Action: antagonist
| SMILES | IC50 |
| --- | --- |
| c1ccc(-c2n[nH]cc2-c2ccnc3ccccc23)nc1 | ≥ 100 µM |
| c1cc(-c2cc3c(ccn3Cc3ccncc3)c(N3CCOCC3)n2)cc(N2CCOCC2)c1 | ≥ 100 µM |
| Cc1cc(NCCc2cnccn2)nc(-c2ccccc2O)n1 | 11.2 µM |
| COc1ccccc1-c1nccc2c(=O)cc(N(C)C)oc12 | ≥ 100 µM |
| Cc1noc2c(-c3cccnc3Nc3ccncc3)cc(-c3ccccc3)nc12 | ≥ 100 µM |
| Cc1noc(C)c1-c1nccc2c(=O)cc(N(C)c3ccccc3)oc12 | ≥ 100 µM |
| O=C(COc1ccccc1)Nc1ccc([C@@H](O)[C@H]2COCC(=O)N2Cc2ccc(C(F)(F)F)cc2)cc1 | ≥ 100 µM |
